Published values pooled from the literature.
Compare with care: the assays were run in different laboratories. “And” joins repeats or separate records; there may be more than shown. ± marks the error that the study gave. Values after ≈ are worked out from the molar mass of the structure shown.

COc1ccccc1-c1n[nH]c2nc(N[C@H]3CC[C@H](NS(=O)(=O)CC(C)C)CC3)ncc12 — EC50 (Leishmania donovani; cell growth; promastigotes, LdBOB CRK6 single knockout): 0.55 ± 0.001 nM
NCCO.O=C(O)C(Cl)Cl — inhibition (Solanum nigrum; herbicidal activity; 15 mg/mL, 21 days, post-emergence greenhouse): 0%
Cc1cc(C(=O)Nc2nc3cccc(C)c3n2[C@H]2CCCCN(C(=O)/C=C/CN(C)C)C2)ccn1 — survival (Trypanosoma brucei brucei; 2T1 CLK1 overexpressing; 2.5 µM, DMSO pretreated; reference: maximum): 42% and 41.5% and 34.8% and 47.8%
Fc1cccc(COc2ccc(Nc3ncnc4ccc(-c5cccc(CN6CCCCC6)c5)cc34)cc2Cl)c1 — EC50 (Trypanosoma cruzi; intracellular amastigote growth, β-galactosidase CPRG; 3T3, Tulahuen, β-galactosidase-expressing; 96 h): 1500 nM
CCc1nn(C)c2nc(-c3ccc(C(=O)O)cc3)nc(NCc3ccccc3)c12 — parasite number (Cryptosporidium parvum; HCT-8; EC50, 6 h; reference: DMSO control): 87.2% and 93.9% and 75% and 59.1%
OB(O)c1ccc(C(F)(F)F)s1 — growth (Staphylococcus aureus; OD600; USA300 fphE::Tn transposon mutant; 1 µM; reference: wild type): 69.1% and 71.9% and 83.1% and 83.9% and 78.2% and 79.4%
C[C@@H](O)[C@H](NC(=O)[C@@H](N)CCCNC(=N)N)C(=O)N[C@@H](CS)C(=O)N[C@@H](CCC(=O)O)C(=O)N[C@@H](CO)C(=O)N[C@@H](CCC(N)=O)C(=O)N[C@@H](CO)C(=O)N[C@@H](Cc1c[nH]cn1)C(=O)N[C@@H](CCCCN)C(=O)N[C@@H](Cc1ccccc1)C(=O)N[C@@H](CCCCN)C(=O)NCC(=O)N1CCC[C@H]1C(=O)N[C@@H](CS)C(=O)O — lowest effective concentration (Botrytis cinerea; grey mould lesion size; detached rose petals; 48 h post-inoculation): > 12 µM
CC(C)[C@H]1NC(=O)[C@H](Cc2ccccc2)NC(=O)[C@@H](C(C)C)NC(=O)[C@@H](C)NC(=O)[C@@H](CO)NC(=O)[C@@H](Cc2c(-c3ccc(-c4ccc5ccccc5c4)cc3)[nH]c3ccccc23)NC(=O)[C@@H](CO)NC1=O — MIC90 (Mycobacterium marinum): > 100 µM
CC[C@H](C)[C@H](NC(=O)[C@H](CCCNC(=N)N)NC(=O)[C@H](CO)NC(=O)[C@H](Cc1ccc(O)cc1)NC(=O)[C@@H](NC(=O)[C@@H](NC(=O)[C@H](C)NC(=O)CNC(=O)[C@H](CCCCN)NC(=O)[C@H](CCCCN)NC(=O)CCNC(=O)CCCCCNC(=O)[C@H](CCCNC(=N)N)NC(=O)CCCCCNC(=O)[C@H](CCCNC(=N)N)NC(=O)[C@H](CCCNC(=N)N)NC(=O)CCCCCNC(=O)[C@H](CCCNC(=N)N)NC(=O)[C@H](CCCNC(=N)N)NC(=O)CCCCCNC(=O)[C@H](CCCNC(=N)N)NC(=O)[C@H](CCCNC(=N)N)NC(=O)CCCCCNC(=O)[C@@H](N)CCCNC(=N)N)C(C)C)[C@@H](C)O)C(=O)N[C@@H](CO)C(=O)NCC(=O)N[C@@H](CCC(N)=O)C(=O)N[C@@H](Cc1ccc(O)cc1)C(=O)N[C@@H](CCCCN)C(=O)O — MBIC50 (Escherichia coli; biofilm formation, crystal violet staining; ATCC 25922, Lennox broth; 24 h, 37 °C, polystyrene plate): 12 µM
O[C@]12C=C(c3nccc4c3[nH]c3ccccc34)[C@@H]3CCN(CCCC/C=C\CC1)C[C@@]31C[C@@H]3/C=C\CCCCN3[C@H]12 — IC50 (Cryptococcus neoformans; microbial growth; ATCC90113): 7.25 µg/mL (≈ 13.2 µM)
COc1ccc(C2=[N+]([O-])c3ccccc3N3CCN=C23)cc1 — MIC50 (Clostridioides difficile; microbial growth): 0.25 µg/mL (≈ 0.852 µM)
